Measurements collected from several papers.
Every numbered part comes from another study and shows a few of its results, in no order. Changes are numbered by the printed parent chain.

Study 1 — method: RNA Bind-n-Seq; form: RNA; medium: in vitro; concentration: 365 nM; baseline: no-protein control; reading: higher = stronger binding; endpoint: RBNS enrichment (R)
Target: RNA binding protein fox-1 homolog 2, RRM domain, GST-SBP tag (RBFOX2, Homo sapiens, UniProt O43251-10, residues 100-194)
Notes: natural RNA segment, single round, ends assumed
Constant ends, left off below: GGGAGUUCUACAGUCCGACGAUC … UGGAAUUCUCGGGUGCCAA
Target sequence (chain): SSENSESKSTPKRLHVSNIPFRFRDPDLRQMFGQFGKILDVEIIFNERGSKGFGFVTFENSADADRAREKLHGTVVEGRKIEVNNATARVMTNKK
CUAGCCAUACCUUUCUUAUGCAAGCCAUUGAGUUAUCAGGACUGUGAAUUAACACUGUAUGAAUAAAUUUCUGUACACCUUAUUGUUUGGCCAGAAGGCCACCAAGUGUA: 0.761
AUACCUGGGAAGACCUUUGCAACAUUGUUCCUUCCAUGGGCCAAGACUCAGUUAGGAGGCAUAAAUCUGCCCGGAAUAAACUAGGCCAGGAUACAGCCAUGUUUAGUUAA: 0.405
UUUAAUUUCUAACCCUACCACAUCACAUCCAGUUUAUGAUUUUUCCAGAGGCUCAAAGCCAGAACCUCCUGCAUGUUGGACAAGCACUCUACCAACUGAGCUACAUCCCC: 5
CUCUGGUUAUAAUUGCCCCAGGGCCUGAUUCAGGACUGACUCUCCACCAUAAAACUGGAAGCUGCUUCCCCUGUAGUCCCCAUUUCAGUACCAGUUCUGCCAGCCACAGU: 0.509
GUACUUUUCUCAGUGACCUCUGGAAUAAAAGAACUGACUUUUGAUAGUUUUAAAAUUAAUCUUUGCAUGAAGGUUGGUUUCGCUUUUUUUCCUUUAAGUUUGUUUUUAAA: 27.6
UCUGCAUUGUAGUCUGAGUGUGCCACAUGUUAGCAAUGUGACCUUGGGCCACACACCUCUUCUGGGCCUUACUUUGCUCUGCUGUAAGGUGUGGGCAUUUAAGAGGUACC: 0.243
UAGUAUAUUCCUGUAAAUGUCAGUUACUGAAAAUGAGUCCAUUGUAAGUAGUUUAGCUUGUUUUUUGCAAUGCCGGCCUCAACACCACAGAGUAAAAAAAAAAAAAAAAC: 1.14
CAGCCAAAACCUGGCCUGGCUACCAAGAAGAGUGGGAAGACAGGAGGAGCAGACUGCUGCUGUUUUGGGGCUAGAUCCUUUCCUCUCCUCUCUGCUGCACCACUGUCAGA: 0.41

Study 2 — method: protein-binding microarray; form: double-stranded DNA, one strand shown; medium: in vitro; concentration: not given; reading: higher = stronger binding; endpoint: E-score
Target: Protein max, full length (MAX, Homo sapiens, UniProt P61244-2, residues 1-151)
Notes: k-mer, scored over probes, only values ≥0.25
GGCATGCC: 0.36
ATGCGGCC: 0.329
ATAACACG: 0.379
AATGCATG: 0.346
CGTGTGCC: 0.372
TGTGCACA: 0.266
ATGCTTGC: 0.255
AACACGTT: 0.437

Further values, each from its own experiment
P1: viral docking peptide; CKVKRKLFGSENI; partner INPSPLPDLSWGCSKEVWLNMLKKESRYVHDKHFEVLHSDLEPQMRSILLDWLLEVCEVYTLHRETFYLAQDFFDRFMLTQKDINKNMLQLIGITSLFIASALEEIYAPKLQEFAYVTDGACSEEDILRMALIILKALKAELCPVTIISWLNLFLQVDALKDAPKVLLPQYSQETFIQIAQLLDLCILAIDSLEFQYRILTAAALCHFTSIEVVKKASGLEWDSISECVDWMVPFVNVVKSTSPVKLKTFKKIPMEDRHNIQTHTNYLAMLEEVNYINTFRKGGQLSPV
PhoQ, residues 284 288 289 292 302 303 TSTLRA
fold induction (PhoP, residues 12 14 15 18 19 NHFRA (Escherichia coli, UniProt P23836); Sort-seq, measured: YFP reporter; E. coli; PhoQ-PhoP variant library, with: 10 µM Mg2+; baseline: high Mg2+ state, higher = stronger signaling): 4.39

P1 F8L
normalised enrichment score (CCNE2, cyclin fold, Cln2 fusion (human); yeast growth competition, sequencing; yeast; strong parent motif; baseline: not given, higher = stronger binding): 0.0586

Repeated from above (study 2):
ATGCGGCC: 0.329
